Assay results of several laboratories.
Lines come from different studies, so protocols differ. “And” joins repeats or separate records; there may be more than shown. Numbers after ± are the reported error.
ADORA1: Adenosine receptor A1 (ADORA1, Homo sapiens, UniProt P30542)
Chain of UniProt P30542 (whole entry, looked up): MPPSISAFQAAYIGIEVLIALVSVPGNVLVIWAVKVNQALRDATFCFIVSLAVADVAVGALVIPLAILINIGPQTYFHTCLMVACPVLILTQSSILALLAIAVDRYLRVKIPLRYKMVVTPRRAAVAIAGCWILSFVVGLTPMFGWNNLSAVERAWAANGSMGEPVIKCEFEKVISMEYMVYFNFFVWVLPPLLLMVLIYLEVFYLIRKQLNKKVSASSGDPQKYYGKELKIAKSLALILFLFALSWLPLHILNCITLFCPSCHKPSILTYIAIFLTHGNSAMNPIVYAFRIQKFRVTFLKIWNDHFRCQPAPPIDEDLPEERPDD
RIPK2: Receptor-interacting serine/threonine-protein kinase 2 (RIPK2, Homo sapiens, UniProt O43353)
Chain of UniProt O43353 (whole entry, looked up): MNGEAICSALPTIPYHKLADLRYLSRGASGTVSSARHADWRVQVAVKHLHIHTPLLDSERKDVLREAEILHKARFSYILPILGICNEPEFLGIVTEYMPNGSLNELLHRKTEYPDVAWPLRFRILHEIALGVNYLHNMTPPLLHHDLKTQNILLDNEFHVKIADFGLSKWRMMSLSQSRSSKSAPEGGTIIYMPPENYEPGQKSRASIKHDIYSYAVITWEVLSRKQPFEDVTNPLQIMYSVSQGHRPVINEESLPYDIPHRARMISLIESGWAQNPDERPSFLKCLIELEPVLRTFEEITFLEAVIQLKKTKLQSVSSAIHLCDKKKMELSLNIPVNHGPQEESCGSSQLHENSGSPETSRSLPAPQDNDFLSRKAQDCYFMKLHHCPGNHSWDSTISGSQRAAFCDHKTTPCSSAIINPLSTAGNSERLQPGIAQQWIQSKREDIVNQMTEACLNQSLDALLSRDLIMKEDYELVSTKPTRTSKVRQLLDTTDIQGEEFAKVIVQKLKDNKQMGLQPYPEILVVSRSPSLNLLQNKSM
Ephx2: Bifunctional epoxide hydrolase 2 (Ephx2, Mus musculus, UniProt P34914)
Chain of UniProt P34914 (whole entry, looked up): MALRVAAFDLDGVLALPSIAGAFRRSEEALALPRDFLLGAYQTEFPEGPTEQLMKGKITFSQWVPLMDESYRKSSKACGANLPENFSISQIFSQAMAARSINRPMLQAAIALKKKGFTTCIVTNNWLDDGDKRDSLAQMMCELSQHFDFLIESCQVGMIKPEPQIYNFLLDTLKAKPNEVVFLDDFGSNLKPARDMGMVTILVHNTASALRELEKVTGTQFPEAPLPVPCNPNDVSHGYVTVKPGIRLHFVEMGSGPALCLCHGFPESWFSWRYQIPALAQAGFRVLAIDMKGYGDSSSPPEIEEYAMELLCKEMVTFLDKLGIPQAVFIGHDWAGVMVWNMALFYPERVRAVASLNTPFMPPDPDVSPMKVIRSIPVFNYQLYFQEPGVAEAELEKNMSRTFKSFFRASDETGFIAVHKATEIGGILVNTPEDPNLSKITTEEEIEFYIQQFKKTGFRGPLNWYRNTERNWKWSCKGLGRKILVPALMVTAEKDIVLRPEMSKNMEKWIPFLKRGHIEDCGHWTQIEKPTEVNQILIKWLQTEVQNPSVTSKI
Chain of UniProt P42336 (whole entry, looked up): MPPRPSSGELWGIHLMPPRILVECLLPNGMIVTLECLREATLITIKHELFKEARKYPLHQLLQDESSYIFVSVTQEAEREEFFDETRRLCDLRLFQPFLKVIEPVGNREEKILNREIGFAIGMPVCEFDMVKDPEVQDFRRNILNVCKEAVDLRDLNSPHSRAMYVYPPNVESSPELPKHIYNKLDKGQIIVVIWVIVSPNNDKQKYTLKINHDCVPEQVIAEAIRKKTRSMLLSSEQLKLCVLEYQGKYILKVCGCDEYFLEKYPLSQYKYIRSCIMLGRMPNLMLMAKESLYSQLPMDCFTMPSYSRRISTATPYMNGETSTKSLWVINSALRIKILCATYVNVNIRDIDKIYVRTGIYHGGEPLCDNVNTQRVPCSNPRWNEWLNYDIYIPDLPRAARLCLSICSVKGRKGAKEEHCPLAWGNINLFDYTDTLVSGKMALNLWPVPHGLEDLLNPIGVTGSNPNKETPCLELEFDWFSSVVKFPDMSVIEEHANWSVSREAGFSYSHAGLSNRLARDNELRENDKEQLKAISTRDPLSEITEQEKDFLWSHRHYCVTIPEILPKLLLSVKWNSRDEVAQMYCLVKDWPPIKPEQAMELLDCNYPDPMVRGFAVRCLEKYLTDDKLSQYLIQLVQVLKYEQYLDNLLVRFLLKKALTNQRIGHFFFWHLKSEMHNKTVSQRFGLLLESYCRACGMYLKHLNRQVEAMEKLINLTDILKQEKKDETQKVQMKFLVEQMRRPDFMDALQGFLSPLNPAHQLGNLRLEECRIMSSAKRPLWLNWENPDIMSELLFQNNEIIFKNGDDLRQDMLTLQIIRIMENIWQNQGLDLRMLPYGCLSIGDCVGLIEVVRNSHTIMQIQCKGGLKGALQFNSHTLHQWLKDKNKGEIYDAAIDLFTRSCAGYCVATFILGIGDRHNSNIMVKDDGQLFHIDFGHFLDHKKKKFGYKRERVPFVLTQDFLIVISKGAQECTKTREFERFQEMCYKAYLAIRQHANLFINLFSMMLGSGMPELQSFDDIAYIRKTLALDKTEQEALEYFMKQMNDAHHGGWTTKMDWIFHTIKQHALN
Chain of UniProt Q96SW2 (whole entry, looked up): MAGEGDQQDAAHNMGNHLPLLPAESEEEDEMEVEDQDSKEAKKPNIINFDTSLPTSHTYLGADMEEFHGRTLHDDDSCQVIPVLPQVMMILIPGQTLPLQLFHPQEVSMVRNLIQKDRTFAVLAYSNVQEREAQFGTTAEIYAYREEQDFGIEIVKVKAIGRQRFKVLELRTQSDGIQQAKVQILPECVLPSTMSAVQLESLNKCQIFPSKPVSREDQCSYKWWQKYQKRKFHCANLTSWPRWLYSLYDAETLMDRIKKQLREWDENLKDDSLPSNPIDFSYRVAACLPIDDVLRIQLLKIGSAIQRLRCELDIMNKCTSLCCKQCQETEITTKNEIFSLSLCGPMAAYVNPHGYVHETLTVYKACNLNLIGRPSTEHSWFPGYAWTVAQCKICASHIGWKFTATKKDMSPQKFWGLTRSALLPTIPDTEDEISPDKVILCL
Chain of UniProt P09917 (whole entry, looked up): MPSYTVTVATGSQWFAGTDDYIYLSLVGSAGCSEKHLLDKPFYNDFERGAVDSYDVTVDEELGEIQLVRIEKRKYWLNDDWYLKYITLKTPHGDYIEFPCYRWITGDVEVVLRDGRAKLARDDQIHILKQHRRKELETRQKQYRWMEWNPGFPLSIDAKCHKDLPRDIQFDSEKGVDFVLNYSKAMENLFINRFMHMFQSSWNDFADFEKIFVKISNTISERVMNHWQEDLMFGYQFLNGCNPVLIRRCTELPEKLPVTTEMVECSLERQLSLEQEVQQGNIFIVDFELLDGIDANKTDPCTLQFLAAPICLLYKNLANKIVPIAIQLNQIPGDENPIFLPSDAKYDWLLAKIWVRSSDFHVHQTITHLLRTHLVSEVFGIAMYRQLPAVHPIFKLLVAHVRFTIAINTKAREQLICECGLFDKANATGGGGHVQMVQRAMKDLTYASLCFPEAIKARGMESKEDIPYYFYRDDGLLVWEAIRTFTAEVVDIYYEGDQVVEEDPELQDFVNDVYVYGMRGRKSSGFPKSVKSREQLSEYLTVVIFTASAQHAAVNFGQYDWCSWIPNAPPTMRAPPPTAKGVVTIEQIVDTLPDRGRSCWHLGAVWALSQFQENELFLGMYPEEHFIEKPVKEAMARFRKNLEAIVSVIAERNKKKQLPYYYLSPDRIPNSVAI
Chain of UniProt P23458 (whole entry, looked up): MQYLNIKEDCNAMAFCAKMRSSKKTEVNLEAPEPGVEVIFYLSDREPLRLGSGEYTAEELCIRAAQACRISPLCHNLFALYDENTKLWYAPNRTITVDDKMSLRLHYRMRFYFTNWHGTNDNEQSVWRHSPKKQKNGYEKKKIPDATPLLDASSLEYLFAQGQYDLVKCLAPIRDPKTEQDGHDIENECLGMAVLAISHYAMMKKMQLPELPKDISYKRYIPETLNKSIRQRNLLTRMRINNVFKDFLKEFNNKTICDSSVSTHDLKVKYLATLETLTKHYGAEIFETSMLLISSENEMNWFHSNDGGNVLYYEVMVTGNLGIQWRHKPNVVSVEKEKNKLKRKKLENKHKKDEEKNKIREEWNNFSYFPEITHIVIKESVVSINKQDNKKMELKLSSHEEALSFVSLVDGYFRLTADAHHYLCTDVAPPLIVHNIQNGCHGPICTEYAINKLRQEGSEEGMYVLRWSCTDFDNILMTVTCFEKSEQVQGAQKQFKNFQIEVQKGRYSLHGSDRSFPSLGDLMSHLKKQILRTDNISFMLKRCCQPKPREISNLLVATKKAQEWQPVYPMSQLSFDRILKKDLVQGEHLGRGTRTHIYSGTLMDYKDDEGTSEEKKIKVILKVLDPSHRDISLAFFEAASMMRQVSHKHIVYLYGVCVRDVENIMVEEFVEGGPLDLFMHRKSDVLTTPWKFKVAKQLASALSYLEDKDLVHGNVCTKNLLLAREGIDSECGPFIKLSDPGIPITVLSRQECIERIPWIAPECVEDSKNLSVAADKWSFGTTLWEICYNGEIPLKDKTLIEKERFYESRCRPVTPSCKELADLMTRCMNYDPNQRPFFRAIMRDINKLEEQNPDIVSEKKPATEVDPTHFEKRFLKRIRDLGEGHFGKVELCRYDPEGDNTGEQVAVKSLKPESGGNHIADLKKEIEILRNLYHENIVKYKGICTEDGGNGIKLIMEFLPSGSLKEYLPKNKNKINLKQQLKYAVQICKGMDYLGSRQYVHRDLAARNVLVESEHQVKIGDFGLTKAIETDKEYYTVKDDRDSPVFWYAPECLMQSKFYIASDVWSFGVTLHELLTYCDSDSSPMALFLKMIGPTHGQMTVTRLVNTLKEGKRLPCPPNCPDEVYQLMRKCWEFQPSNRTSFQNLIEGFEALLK
Chain of UniProt P20231 (whole entry, looked up): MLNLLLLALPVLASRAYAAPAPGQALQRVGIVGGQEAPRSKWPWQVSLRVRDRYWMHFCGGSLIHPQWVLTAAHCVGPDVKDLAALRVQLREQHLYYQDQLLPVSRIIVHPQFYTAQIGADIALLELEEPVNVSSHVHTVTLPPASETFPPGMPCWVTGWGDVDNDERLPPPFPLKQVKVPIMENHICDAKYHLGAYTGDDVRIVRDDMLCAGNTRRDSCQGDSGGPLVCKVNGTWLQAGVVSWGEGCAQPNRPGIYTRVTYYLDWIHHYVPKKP

| SMILES | target | test | test system | setting | IC50 |
| --- | --- | --- | --- | --- | --- |
| N=C(N)NCCC[C@H](NC(=O)[C@H](CC(=O)O)NC(=O)[C@@H]1CSCC(=O)NCC(=O)N[C@@H](Cc2c[nH]cn2)C(=O)N[C@H](Cc2ccccc2)C(=O)N[C@@H](CCCNC(=N)N)C(=O)N[C@@H](Cc2c[nH]c3ccccc23)C(=O)N1)C(=O)N[C@@H](Cc1ccccc1)C(=O)NCC(N)=O | MC1R (Homo sapiens, UniProt Q01726) | ligand displacement, radioligand |  |  | 2 µM |
| CCn1[c]([Au-]([Cl])([Cl])[Cl])[n+](CC)c2ccc(C(=O)OC)cc21 | trxB (Escherichia coli, UniProt P0A9P4) | enzyme activity, inhibitor, absorbance |  | with preincubation | 0.252 µM |
| CC(=O)[C@@]12C[C@@H](CC=C(C)C)[C@](C)(CCC=C(C)C)C(C(=O)c3ccccc3)=C1O[C@]1(C)CCCC(C)(C)[C@H]1C2 (relative stereo) | α-glucosidase Saccharomyces cerevisiae |  |  | together with: p-nitrophenyl glucoside | > 100 µM |
| COc1cc(O)ccc1CC[C@@H](c1ccc(O)cc1)c1cc2c(c(C)c1O)O[C@@H](c1ccc(O)cc1)CC2 | ALOX5 (Homo sapiens, UniProt P09917) | 5-LO product formation | human PMNL | together with: A23187 plus arachidonic acid | 2.1 µM |
| N#Cc1ccc(N(Cc2ccc(OS(N)(=O)=O)cc2F)n2cnnc2)cc1 | Steryl-sulfatase (STS, Homo sapiens, UniProt P08842) | enzyme activity, inhibitor | JEG-3 intact monolayers |  | 0.01 to 0.1 µM |
| NCCO[C@H]1[C@H](O)[C@@H](O)[C@@H]2O[C@@H]2[C@@H]1C(=O)O | Beta-glucuronidase (uidA, Escherichia coli, UniProt P05804) | enzyme activity, inhibitor, fluorescence |  | pH 5, with preincubation | > 100 µM |
| CN(C(=O)c1ccn2ncc(-c3ccc(C(N)=O)cc3)c2c1)c1ccc(C#N)cn1 | Caspase-3 (CASP3, Homo sapiens, UniProt P42574) | enzyme activity, inhibitor |  |  | > 30 µM |
| Cc1[nH]c2ccccc2c1CCNC(=O)c1cccs1 | ACTR3/Actin-related protein 2 (Homo sapiens, UniProt P61158+P61160) | actin polymerization, inhibitor, pyrenyl-actin polymerization |  |  | 4 µM |
| COc1cc(OC)c(OC)cc1/C=C/C(=O)c1ccc2ccccc2c1 | ABCG2 (Homo sapiens, UniProt Q9UNQ0) | transporter efflux, inhibitor, flow cytometry | HEK293 | 30 min | 0.23 µM |
| COC(=O)C1C(c2nc3ncccc3[nH]2)=Cc2cc3c(cc2C1c1cc(OC)c(OC)c(OC)c1)OCO3 (stereo not shown) | tubulin alpha/beta (Leishmania infantum, UniProt A0A381MCS3+A4HTR0) | tubulin polymerization, inhibitor |  | 37 °C | 0.3 µM and 0.31 µM |
| O=Cc1cc(C=O)cc(C=O)c1 | Tryptase beta-2 (TPSB2, Homo sapiens, UniProt P20231) |  |  | pH 7.4 | > 10000 µM |
| O=[N+]([O-])c1cc(Cl)ccc1S(=O)(=O)c1ccccc1 | KIF18A (Homo sapiens, UniProt Q8NI77) | microtubule-stimulated ATPase, inhibitor, enzyme-coupled |  |  | 0.61 µM |
| Cc1ccc(O)c(C=NNC(=S)NCc2ccc(Cl)cc2)c1 | AKR1B1 (Homo sapiens, UniProt P15121) | enzyme activity, inhibitor, absorbance |  |  | > 100 µM |
| N#C/C(=C\c1cccc(-c2cccc3[nH]ncc23)c1)C(N)=O | JAK1 (Homo sapiens, UniProt P23458) | kinase activity, inhibitor |  | up to highest tested, together with: ATP at Km | > 10 µM |
| CCNC(=O)[C@H]1O[C@@H](n2cnc3c(NCCCCNS(=O)(=O)c4cccc5c(N(C)C)cccc45)ncnc32)[C@H](O)[C@@H]1O | ADORA1 | CRE reporter gene, agonist | CHO-A1 | Gi-mediated inhibition, together with: forskolin | 1.12 µM |
| CC[C@H](C)[C@@H]1NC(=O)[C@H](Cc2c[nH]c3ccccc23)NC(=O)CNC(=O)c2cc3cc(c2)C(=O)NC[C@@H](C(=O)N[C@H](CCCNC(=N)N)C(=O)NCCC(=O)N[C@@H](CCCCN)C(N)=O)NC(=O)[C@H](CCCNC(=N)N)NC(=O)[C@H](CCCNC(=N)N)NC(=O)[C@H](CCCNC(=N)N)NC(=O)[C@H](Cc2ccc4ccccc4c2)NC(=O)[C@H](Cc2ccccc2)NC(=O)[C@H](CNC3=O)NC(=O)[C@H](Cc2ccc(O)cc2)NC1=O | NF-kappa-B essential modulator, with IKK-beta (IKBKG, Homo sapiens, UniProt Q9Y6K9) | inhibitor, HTRF |  |  | 1.3 ± 0.4 µM |
| O=C(NC1CCCC1)N1CCC=C(c2cc3c(Nc4cc5ncsc5cc4F)ncnc3s2)C1 | RIPK2 | enzyme activity, inhibitor |  |  | 0.01 µM |
| N#Cc1cnc2sc(C(=O)O)cc2c1N1CCc2[nH]nc(C(=O)N[C@@H](CC(=O)NCCOCCN3CCOCC3)c3cccc(Br)c3)c2C1 | Interleukin-1 receptor-like 2 (IL1RL2, Homo sapiens, UniProt Q9HB29) | antagonist, SEAP reporter | HEK-Blue IL-36R | 6 h, together with: 0.003 ng/mL IL-36β | > 100 µM |
| C=CC(=O)N1CCC(c2ccccc2)CC1 | Fosb/Jund, ΔFosB isoform (Mus musculus, UniProt P13346+P15066) | ΔFOSB/JUND DNA binding, fluorescence polarization |  | 15 min, together with: TMR-cdk5 oligonucleotide | > 200 µM |
| CC(C)c1ccc(C2C(C(=O)c3ccc(F)cc3)=C(O)C(=O)N2CCCCCC(=O)O)cc1 (stereo not shown) | P2Y purinoceptor 14 (P2RY14, Homo sapiens, UniProt Q15391) | antagonist |  |  | 0.0455 µM |
| Oc1ccc([C@H]2Oc3cc(O)cc(O)c3[C@H](c3c(O)cc(O)c4c3O[C@H](c3ccc(O)c(O)c3)[C@H](O)[C@H]4c3c(O)cc(O)c4c3O[C@H](c3ccc(O)c(O)c3)[C@H](O)C4)[C@H]2O)cc1 | alpha-glucosidase (Bacillus stearothermophilus) | inhibitor |  | 20 min, pH 6.8, 60 °C, together with: pNPG substrate | 8.6 ± 1.5 µM |
| O=c1ccc2ccc(O[C@@H]3O[C@H](CO)[C@@H](O)[C@H](O)[C@H]3O)cc2o1 | PTPN1 (Homo sapiens, UniProt P18031) | enzyme activity, inhibitor, absorbance |  |  | > 100 µM |
| O=C(NC12CC3CC(CC(Cl)(C3)C1)C2)NC12CC3CC(CC(Cl)(C3)C1)C2 | Ephx2 | enzyme activity, inhibitor, fluorescence |  |  | 0.0021 µM |

| SMILES | target | test | test system | setting | IC50 |
| --- | --- | --- | --- | --- | --- |
| COc1cc(/C=C/C(=O)CC(=O)CCc2ccc(O)c(OC)c2)ccc1O | Hsd3b1 (Rattus norvegicus, UniProt P22071) | enzyme activity, inhibitor | rat testicular microsomes | lower bound from 100 µM screen, together with: pregnenolone | ≥ 100 µM |
| COc1ccc(/C=C/C(=O)CC(=O)CCc2cc(OC)c(OC)c(OC)c2)cc1 | PNLIP (Sus scrofa, UniProt P00591) | enzyme activity, inhibitor, absorbance |  |  | 164 µM |
| CCCn1c(=O)c2[nH]c(-c3ccc(OCC(=O)NCCNC(=O)CCCCCNC(=O)COc4ccc(/C=C/C5=[N+]6C(=Cc7ccc(-c8cccs8)n7[B-]6(F)F)C=C5)cc4)cc3)nc2n(CCC)c1=O | ADORA1 | ligand displacement in cells, radioligand |  |  | 0.0525 µM |
| CCCC1CCC(c2ccc(C(=O)NC(C(=O)O)C(C)C)cc2)CC1 (stereo not shown) | SCN9A (Homo sapiens, UniProt Q15858) | ion current, inhibitor |  |  | 0.34 µM |
| COc1ccc(NC(=O)c2cccc(S(=O)(=O)NC3CC3)c2)cc1 | Ectonucleoside triphosphate diphosphohydrolase 8 (Homo sapiens, UniProt Q5MY95) | enzyme activity, inhibitor, absorbance |  |  | 41.5 µM |
| O=C(Nc1ccc(-c2nc(-c3ccccc3)cs2)cc1)C1CCN(Cc2ccc(F)cc2F)CC1 | Ephx2 | enzyme activity, inhibitor, fluorescence |  | pH 7.4, with preincubation | > 10 µM |
| Cc1ccc(NC(=O)NCc2ccc3c(c2)CN(C2CCC(=O)NC2=O)C3=O)cc1Cl (stereo not shown) | Protein cereblon (CRBN, Homo sapiens, UniProt Q96SW2) | ligand displacement, TR-FRET |  |  | 0.2 µM |
| COc1ccc(-c2ccn(CC[C@](C)(C(=O)NO)S(C)(=O)=O)c(=O)c2)c(F)c1 | UDP-3-O-acyl-N-acetylglucosamine deacetylase (lpxC, Acinetobacter baumannii, UniProt A3M9X5) | enzyme activity, inhibitor |  |  | 0.183 µM |
| CC(Cl)C(=O)Nc1ccc2nc(NCCCCCN(C)C)nc(NCCCCCCN(C)C)c2c1 (stereo not shown) | SETDB1 (Homo sapiens, UniProt Q15047) | enzyme activity, inhibitor |  |  | 80.3 µM |
| COc1ccc(SCC(=O)c2ccc(O)cc2O)cc1 | Estrogen receptor (ESR1, Homo sapiens, UniProt P03372) | coactivator recruitment, antagonist |  |  | 1.96 µM |
| CCCCCCCCCCCCCCCCC1=C[C@@H](C(=O)O)[C@H]2C(=O)C(C(=O)OC)=C(CCCCCCCCCCCCCCCC)[C@H]2[C@H]1C(=O)OC | protein kinase A | inhibitor |  |  | > 50 µM |
| O=C1NC(=S)S/C1=C\c1ccc2c(c1)OCO2 | PIK3CA (Homo sapiens, UniProt P42336) | enzyme activity, inhibitor, radiometric |  |  | 0.25 µM |
| O=C(Nc1ccc(-c2nc3ccccc3s2)cc1)C1CCN(S(=O)(=O)c2ccccc2Cl)CC1 | Ephx2 | enzyme activity, inhibitor, fluorescence |  | pH 7.4 | 0.813 µM |
| O=C(NC1CC1)N1CC=C(c2cc3c(Nc4cc5ncsc5cc4F)ncnc3s2)CC1 | RIPK2 | enzyme activity, inhibitor |  |  | 0.012 µM |
| COCc1cc2c(cn1)CN(C(=O)Nc1nc(-c3ccc(F)cc3)ccc1N)C2 | HDAC4 (Homo sapiens, UniProt P56524) | deacetylase activity, inhibitor, recombinant enzyme |  |  | > 30 µM |
| CC(C)C[C@H](NC(=O)[C@H](CC(N)=O)NC(=O)[C@H](CC(C)C)NC(=O)[C@@H](NC(=O)[C@@H](NC(=O)[C@@H]1CCCN1C(=O)[C@H](CCCNC(=N)N)NC(=O)[C@H](CCCCN)NC(=O)[C@@H]1CCCN1)[C@@H](C)O)[C@@H](C)O)C(=O)N[C@@H](Cc1ccccc1)C(N)=O | MAPK10 (Homo sapiens, UniProt P53779) | enzyme activity, inhibitor, radiometric |  | pH 7.5 | 2.6 µM |
| Cc1ccc2oc(-c3c4c(N)n[nH]c(=O)c4nn3-c3ccc(NC(=O)/C=C/CN(C)C)cc3)c(C)c2c1 | FLT1 (Homo sapiens, UniProt P17948) | enzyme activity, inhibitor, ELISA |  |  | > 1 µM |
| CC(C)c1ccc(C(=O)Nc2ccc(CN3CCN(C)CC3)c(C(F)(F)F)c2)cc1C#Cc1cnc2cccnn12 | RIPK2 | enzyme activity, inhibitor, ADP detection |  |  | 0.63 µM |
| N=C(NCCCC(N)C(N)=O)NCCSCC1OC(n2cnc3c(N)ncnc32)C(O)C1O (stereo not shown) | EHMT2 (Homo sapiens, UniProt Q96KQ7) | enzyme activity, inhibitor, fluorescence |  |  | > 100 µM |
| O=C(NCc1ccc2c(c1)OCO2)C(c1ccccc1)c1ccccc1 | E3 ubiquitin-protein ligase Mdm2, with p53 (MDM2, Homo sapiens, UniProt Q00987) | inhibitor |  |  | 0.66 ± 0.083 µM |
| COc1cncc(-c2cc(F)cc(CNC(=O)c3cc(N4CC[C@@](C#N)(C5CC5)C4=O)cc(C)n3)c2)c1 | EPRS1 (Homo sapiens, UniProt P07814) | enzyme activity, inhibitor, absorbance |  |  | 1.08 µM |
| CNC(=O)C1CCN(c2ccccc2NC(=O)c2ccc(-c3cc(O)ccc3C)c(C)c2)CC1 | FGR (Homo sapiens, UniProt P09769) | target engagement in cells, BRET |  |  | 5.44 µM |
| Nc1ncnc2c1ncn2[C@@H]1O[C@H](CNc2c(NC(=O)CCC(=O)c3ccccc3C(=O)O)c(=O)c2=O)[C@@H](O)[C@H]1O | 2-succinylbenzoate--CoA ligase (menE, Escherichia coli, UniProt P37353) | enzyme activity, inhibitor, MenB-MenE coupled |  |  | > 200 µM |

Some of these lines once more:
| SMILES | target | test | test system | setting | IC50 |
| --- | --- | --- | --- | --- | --- |
| COc1cc(OC)c(OC)cc1/C=C/C(=O)c1ccc2ccccc2c1 | ABCG2 (Homo sapiens, UniProt Q9UNQ0) | transporter efflux, inhibitor, flow cytometry | HEK293 | 30 min | 0.23 µM |
| COC(=O)C1C(c2nc3ncccc3[nH]2)=Cc2cc3c(cc2C1c1cc(OC)c(OC)c(OC)c1)OCO3 (stereo not shown) | tubulin alpha/beta (Leishmania infantum, UniProt A0A381MCS3+A4HTR0) | tubulin polymerization, inhibitor |  | 37 °C | 0.3 µM and 0.31 µM |
| O=Cc1cc(C=O)cc(C=O)c1 | Tryptase beta-2 (TPSB2, Homo sapiens, UniProt P20231) |  |  | pH 7.4 | > 10000 µM |
| O=[N+]([O-])c1cc(Cl)ccc1S(=O)(=O)c1ccccc1 | KIF18A (Homo sapiens, UniProt Q8NI77) | microtubule-stimulated ATPase, inhibitor, enzyme-coupled |  |  | 0.61 µM |
| Cc1ccc(O)c(C=NNC(=S)NCc2ccc(Cl)cc2)c1 | AKR1B1 (Homo sapiens, UniProt P15121) | enzyme activity, inhibitor, absorbance |  |  | > 100 µM |
| N#C/C(=C\c1cccc(-c2cccc3[nH]ncc23)c1)C(N)=O | JAK1 (Homo sapiens, UniProt P23458) | kinase activity, inhibitor |  | up to highest tested, together with: ATP at Km | > 10 µM |
